# Results pooled from the literature.
# Each line is one published result; not all experiments were run side by side. Several values in a cell are separate wells, animals, samples, runs or records.
# Target: Insulin receptor-related protein (INSRR, Homo sapiens, UniProt P14616)
Structure (SMILES),test,conditions,how to read,endpoint,value
COc1cc(Nc2nccc(-c3cnn4nc(OC)ccc34)n2)cc(C(F)(F)F)c1,"binding, competition with immobilised ligand",1 µM,,remaining binding,95%
COc1c(Cl)cccc1Nc1c(-c2ccncc2C#C[C@@]2(C)CCCN2C(=O)/C=C/CN(C)C)[nH]c2c1C(=O)NCC2,"binding, competition with immobilised ligand",3 µM,,remaining binding,100%
CN1CC[C@@H](COc2cnc(C#N)cc2-c2ccn3nc(NC(=O)C4CC4)cc3c2)C1,"enzyme activity, inhibitor",1 µM,,inhibition,-5%
Cc1cnc2nc1Nc1cccc(c1)COC/C=C/COCc1cc(ccc1OCCN1CCOCC1)N2,binding,0.1 µM,,remaining binding,68%
C=CC(=O)Nc1cccc(-c2cnc3[nH]cc(C(=O)NC(C)(C)C)c3n2)c1,kinase activity,0.1 µM,,inhibition,-1% and 3%
COCC12C(=O)NC3C4(C(OC)CC1O)C1CC5(O)C(OC)C(O)C(OC(C)=O)(C1C5OC(=O)c1ccccc1)C3(O)C(OC)C24 (centres unmarked),"kinase activity, inhibitor, ProQinase kinase profiling",25 µM,baseline: control,remaining activity,109% and 111%
Nc1ncc2c(n1)-c1c([nH]c3ccc(C4=CCOCC4)cc13)CCC2,"binding, competition with immobilised ligand",1 µM,,remaining binding,82%
CCn1cc(C(=O)O)c(=O)c2c(N)c(F)c(NC3CCCCC3)cc21,kinase activity,"0.1 µM, together with: ATP at Km",,inhibition,20.2%
Cc1cccc(-c2ccc3nc(NC(=O)C4CCCCC4)nn3c2)c1,"enzyme activity, Dundee kinase panel",10 µM,,remaining activity,11%
CC(C)=CC1OC(C)(C)C2C=C3C(=O)C(Cl)=CC(O)C3C3C(O)C4OC4C(=O)C132 (centres unmarked),"cell-free assay, competition with immobilised ligand",10 µM,,remaining binding,100%
Cc1cccc(O[C@H]2CCC[C@@H](C(C)CNCc3ccncc3)C2)c1 (relative stereo),cell-free assay,1 µM,,inhibition,1%
Cc1ccc(C)c(-c2ccc3nc(NC(=O)C4CCCCC4)nn3c2)c1,"enzyme activity, Dundee kinase panel",10 µM,,remaining activity,14%
NC(=O)[C@@H](O)C[C@H]1CCc2sc3ncnc(O[C@H]4CC[C@H](N5CCOCC5)CC4)c3c21,"enzyme activity, inhibitor",10 µM,,inhibition,20%
CN1CCN(Cc2ccc(-c3ccc(CO[C@H]4CCC[C@@H]4NC(=O)c4cc(-c5cnn(C)c5)cnc4N)cc3)cc2)CC1,"enzyme activity, inhibitor",0.1 µM,,inhibition,8%
CCN1CCN(Cc2ccc(C(=O)Nc3ccc(C)c(NCc4cnc5[nH]ccc5c4OC)c3)cc2C(F)(F)F)CC1,"binding, competition with immobilised ligand",1 µM,,remaining binding,85%
C=CC(=O)N1Cc2nc(-c3cc(-c4cc(Cl)cnc4Cl)c(F)cc3F)n(-c3ccncn3)c2C1,cell-free assay,1 µM,,inhibition,4.9%
O=C=[N][Ru-4]123([n]4c5ccc(O)cc5c5c6c(c7cc(F)c[n+]1c7c54)C(=O)NC6=O)[S+]1CC[S+]2CC[S+]3CC1 (centres unmarked),enzyme activity,"100 nM, human enzyme, together with: 10 µM ATP",baseline: untreated,remaining activity,54%

# For quick reference, copied from above:
Structure (SMILES),test,conditions,how to read,endpoint,value
NC(=O)[C@@H](O)C[C@H]1CCc2sc3ncnc(O[C@H]4CC[C@H](N5CCOCC5)CC4)c3c21,"enzyme activity, inhibitor",10 µM,,inhibition,20%
